# Published values gathered from unrelated publications.
# Protocols differ between the studies behind these lines. Numbers after ± are the reported error.
# Sterol carrier protein 2: Sterol carrier protein 2 (Homo sapiens, UniProt P22307)
# UniProt P22307, sequence (whole entry, looked up): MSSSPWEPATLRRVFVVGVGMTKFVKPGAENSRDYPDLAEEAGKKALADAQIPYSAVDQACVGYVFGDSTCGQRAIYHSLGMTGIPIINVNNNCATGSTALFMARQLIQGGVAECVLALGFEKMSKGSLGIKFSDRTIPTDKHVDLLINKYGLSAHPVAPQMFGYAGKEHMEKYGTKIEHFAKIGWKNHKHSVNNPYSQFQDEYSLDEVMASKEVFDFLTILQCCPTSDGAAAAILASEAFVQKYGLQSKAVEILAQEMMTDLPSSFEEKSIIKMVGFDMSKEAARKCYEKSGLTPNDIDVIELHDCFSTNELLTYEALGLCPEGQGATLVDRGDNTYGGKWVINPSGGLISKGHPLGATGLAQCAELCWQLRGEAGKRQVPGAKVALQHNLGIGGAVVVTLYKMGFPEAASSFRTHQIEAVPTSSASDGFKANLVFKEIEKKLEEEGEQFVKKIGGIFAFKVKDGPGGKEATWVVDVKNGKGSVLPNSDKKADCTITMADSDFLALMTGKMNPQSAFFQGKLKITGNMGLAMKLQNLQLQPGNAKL
# BCHE: Cholinesterase (BCHE, Homo sapiens, UniProt P06276)
# UniProt P06276, sequence (whole entry, looked up): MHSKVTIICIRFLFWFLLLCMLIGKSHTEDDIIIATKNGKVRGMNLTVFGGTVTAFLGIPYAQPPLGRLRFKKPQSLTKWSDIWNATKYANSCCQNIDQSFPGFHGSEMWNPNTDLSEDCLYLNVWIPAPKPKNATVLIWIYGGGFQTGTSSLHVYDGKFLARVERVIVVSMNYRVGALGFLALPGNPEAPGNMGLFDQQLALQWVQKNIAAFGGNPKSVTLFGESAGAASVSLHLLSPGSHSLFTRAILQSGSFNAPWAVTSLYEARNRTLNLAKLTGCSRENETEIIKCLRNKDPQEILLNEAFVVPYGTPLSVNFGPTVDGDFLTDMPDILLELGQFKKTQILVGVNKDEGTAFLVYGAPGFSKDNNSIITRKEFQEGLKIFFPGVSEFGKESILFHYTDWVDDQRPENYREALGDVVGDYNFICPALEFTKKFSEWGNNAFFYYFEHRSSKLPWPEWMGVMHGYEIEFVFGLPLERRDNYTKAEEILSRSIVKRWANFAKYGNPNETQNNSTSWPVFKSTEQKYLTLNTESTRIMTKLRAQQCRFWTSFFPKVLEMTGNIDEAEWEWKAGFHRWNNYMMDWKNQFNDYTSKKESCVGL
# UniProt P10587, sequence (whole entry, looked up): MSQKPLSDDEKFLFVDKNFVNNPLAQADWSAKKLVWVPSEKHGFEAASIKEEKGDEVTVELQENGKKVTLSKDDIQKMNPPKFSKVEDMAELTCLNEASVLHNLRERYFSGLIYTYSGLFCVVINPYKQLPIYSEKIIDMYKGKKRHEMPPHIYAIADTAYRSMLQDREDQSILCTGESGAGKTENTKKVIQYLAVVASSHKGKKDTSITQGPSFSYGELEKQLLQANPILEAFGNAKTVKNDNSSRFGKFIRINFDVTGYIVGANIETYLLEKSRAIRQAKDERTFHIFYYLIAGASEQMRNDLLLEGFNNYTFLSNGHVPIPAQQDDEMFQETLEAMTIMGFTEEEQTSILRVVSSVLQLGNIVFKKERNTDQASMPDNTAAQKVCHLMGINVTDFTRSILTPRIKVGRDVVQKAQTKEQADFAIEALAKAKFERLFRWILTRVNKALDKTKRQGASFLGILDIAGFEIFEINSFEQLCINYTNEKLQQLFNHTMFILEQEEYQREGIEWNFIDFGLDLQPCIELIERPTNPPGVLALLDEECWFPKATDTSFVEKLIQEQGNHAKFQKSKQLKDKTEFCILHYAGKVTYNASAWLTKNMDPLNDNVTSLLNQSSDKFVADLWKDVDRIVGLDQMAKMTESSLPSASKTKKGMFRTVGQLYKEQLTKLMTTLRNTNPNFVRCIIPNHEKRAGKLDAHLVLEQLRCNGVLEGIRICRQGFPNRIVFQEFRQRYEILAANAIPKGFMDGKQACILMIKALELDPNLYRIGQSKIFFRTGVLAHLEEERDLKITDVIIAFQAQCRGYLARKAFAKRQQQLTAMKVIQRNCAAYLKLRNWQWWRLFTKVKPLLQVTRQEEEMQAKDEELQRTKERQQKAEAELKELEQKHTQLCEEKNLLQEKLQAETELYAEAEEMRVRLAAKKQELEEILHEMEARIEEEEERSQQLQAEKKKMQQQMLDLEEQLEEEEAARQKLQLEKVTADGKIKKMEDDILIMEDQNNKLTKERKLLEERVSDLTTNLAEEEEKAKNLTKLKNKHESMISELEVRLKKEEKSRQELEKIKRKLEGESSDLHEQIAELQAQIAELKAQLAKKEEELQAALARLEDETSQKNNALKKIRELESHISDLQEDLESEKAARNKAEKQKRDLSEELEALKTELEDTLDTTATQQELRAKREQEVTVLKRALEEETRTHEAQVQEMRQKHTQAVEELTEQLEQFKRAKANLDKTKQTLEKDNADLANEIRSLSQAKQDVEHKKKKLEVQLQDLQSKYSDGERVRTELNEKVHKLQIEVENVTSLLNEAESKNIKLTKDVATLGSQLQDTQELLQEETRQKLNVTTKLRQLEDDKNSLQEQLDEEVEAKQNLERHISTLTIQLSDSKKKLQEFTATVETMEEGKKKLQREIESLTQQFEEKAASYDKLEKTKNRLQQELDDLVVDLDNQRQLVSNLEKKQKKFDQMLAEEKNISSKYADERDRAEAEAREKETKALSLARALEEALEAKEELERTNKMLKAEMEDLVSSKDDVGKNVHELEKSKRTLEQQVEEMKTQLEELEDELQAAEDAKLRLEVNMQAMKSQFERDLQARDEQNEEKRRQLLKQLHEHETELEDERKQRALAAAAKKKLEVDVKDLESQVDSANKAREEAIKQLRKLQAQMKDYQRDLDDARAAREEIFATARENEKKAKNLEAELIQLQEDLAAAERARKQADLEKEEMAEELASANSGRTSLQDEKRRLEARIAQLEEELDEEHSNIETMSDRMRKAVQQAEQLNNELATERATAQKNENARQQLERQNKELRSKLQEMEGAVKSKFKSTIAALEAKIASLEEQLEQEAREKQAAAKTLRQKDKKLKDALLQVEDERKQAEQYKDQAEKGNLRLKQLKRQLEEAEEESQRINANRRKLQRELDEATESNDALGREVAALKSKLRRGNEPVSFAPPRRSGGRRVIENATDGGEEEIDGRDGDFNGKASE
# UniProt Q9NWT6, sequence (whole entry, looked up): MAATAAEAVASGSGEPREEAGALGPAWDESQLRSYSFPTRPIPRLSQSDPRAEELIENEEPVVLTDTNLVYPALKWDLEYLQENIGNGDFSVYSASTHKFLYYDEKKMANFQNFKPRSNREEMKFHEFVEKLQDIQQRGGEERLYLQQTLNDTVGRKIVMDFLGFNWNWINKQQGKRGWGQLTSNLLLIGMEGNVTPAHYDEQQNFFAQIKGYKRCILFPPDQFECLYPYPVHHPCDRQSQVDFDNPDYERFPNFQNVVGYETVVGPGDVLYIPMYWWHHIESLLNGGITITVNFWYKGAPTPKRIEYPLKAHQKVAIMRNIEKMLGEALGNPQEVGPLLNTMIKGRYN
# UniProt P60651, sequence (whole entry, looked up): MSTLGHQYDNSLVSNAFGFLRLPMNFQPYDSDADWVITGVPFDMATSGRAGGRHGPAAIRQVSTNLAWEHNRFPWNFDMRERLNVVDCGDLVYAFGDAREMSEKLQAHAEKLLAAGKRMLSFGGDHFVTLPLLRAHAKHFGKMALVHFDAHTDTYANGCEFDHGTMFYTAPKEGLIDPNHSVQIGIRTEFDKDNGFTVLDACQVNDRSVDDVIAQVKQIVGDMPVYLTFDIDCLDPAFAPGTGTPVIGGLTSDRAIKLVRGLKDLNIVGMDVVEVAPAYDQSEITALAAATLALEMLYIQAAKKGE
# UniProt Q14973, sequence (whole entry, looked up): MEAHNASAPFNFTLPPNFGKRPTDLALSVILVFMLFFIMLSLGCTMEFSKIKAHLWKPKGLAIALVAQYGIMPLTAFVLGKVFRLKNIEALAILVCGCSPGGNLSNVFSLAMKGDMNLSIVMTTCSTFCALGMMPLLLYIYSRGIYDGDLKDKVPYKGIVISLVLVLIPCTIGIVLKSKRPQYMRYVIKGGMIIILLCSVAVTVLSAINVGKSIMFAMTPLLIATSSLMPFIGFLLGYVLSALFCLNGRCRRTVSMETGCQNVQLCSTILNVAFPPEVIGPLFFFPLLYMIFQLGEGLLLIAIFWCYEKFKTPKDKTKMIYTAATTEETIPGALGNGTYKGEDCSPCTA
# UniProt P09483, sequence (whole entry, looked up): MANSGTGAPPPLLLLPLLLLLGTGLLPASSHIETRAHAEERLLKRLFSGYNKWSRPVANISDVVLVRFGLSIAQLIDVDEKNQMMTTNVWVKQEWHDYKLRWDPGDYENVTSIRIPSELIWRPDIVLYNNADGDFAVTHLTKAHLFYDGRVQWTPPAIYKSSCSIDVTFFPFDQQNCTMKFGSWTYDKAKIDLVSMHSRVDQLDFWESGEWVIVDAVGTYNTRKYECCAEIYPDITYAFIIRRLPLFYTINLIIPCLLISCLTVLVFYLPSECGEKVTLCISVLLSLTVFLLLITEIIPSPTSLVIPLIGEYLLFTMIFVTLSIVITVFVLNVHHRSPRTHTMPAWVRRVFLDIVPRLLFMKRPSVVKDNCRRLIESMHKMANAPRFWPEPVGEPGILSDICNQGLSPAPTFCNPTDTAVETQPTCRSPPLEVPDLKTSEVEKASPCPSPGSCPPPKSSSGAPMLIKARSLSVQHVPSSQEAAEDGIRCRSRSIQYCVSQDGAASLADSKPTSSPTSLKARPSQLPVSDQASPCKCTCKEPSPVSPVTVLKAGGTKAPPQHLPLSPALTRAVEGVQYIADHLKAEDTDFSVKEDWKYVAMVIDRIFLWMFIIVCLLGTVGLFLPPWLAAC
# UniProt O15540, sequence (whole entry, looked up): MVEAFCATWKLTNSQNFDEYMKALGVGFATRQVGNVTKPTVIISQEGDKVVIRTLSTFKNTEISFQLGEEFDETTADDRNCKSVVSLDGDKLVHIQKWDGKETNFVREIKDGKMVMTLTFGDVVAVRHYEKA
SMILES,tested on,test,test system,conditions,measurement,result
O=C(O)C(F)(F)C(F)(F)C(F)(F)C(F)(F)C(F)(F)C(F)(F)C(F)(F)F,Sterol carrier protein 2,"binder, NBD-stearic acid displacement fluorescence",,recombinant protein,Ki,> 64 µM
CN(C)C(=N)N=C(N)N,"speB (Escherichia coli, UniProt P60651)",competitive inhibitor,,"pH 7.5, together with: agmatine",Ki,1140 ± 120 µM
FCCCc1cncc(OC[C@@H]2C=CCN2)c1,"Neuronal acetylcholine receptor; alpha4/beta2 (Rattus norvegicus, UniProt P09483+P12390)","binding, radioligand displacement",rat brain homogenate,together with: [3H]cytisine,Ki,0.00036 µM
C[C@@H](N[C@H]1CCCC[C@@H]1NC(=O)c1ccc(Cl)cc1)c1cccc2ccccc12,BCHE,inhibitor,,,IC50,6.85 µM
COc1cc(CC(=O)NCC(COC(=O)C(C)(C)C)Cc2ccc(C(C)(C)C)cc2)cc(Br)c1N (stereo not drawn),"Trpv1 (Rattus norvegicus, UniProt O35433)",,,cell-based,Ki,0.00219 µM
CCOC(=O)C1(CCOc2ccccc2)CCN(Cc2ccc(O)c(Cl)c2)CC1,BCHE,inhibitor,,,IC50,10.9 ± 3.59 µM
O=C(O)C(F)(F)C(F)(F)C(F)(F)C(F)(F)C(F)(F)C(F)(F)C(F)(F)C(F)(F)C(F)(F)C(F)(F)F,Sterol carrier protein 2,"binder, NBD-stearic acid displacement fluorescence",,recombinant protein,Ki,3.7 ± 0.14 µM
CCCCOP(=O)(O)C(C)=O,"dxs (Pseudomonas aeruginosa, UniProt Q9KGU7, R106A)",inhibitor,,,Ki,20.7 ± 0.8 µM
O=P(O)(O)Oc1ccccc1OP(=O)(O)O,"STAT1 (Homo sapiens, UniProt P42224)",inhibitor,,,Ki,44 ± 1 µM
CCc1c(-c2ccccc2)c(-c2ccccc2)nn1-c1ccccc1-c1cccc(OCC(=O)O)c1,"Fatty acid-binding protein, brain (Homo sapiens, UniProt O15540)","binding, radioligand competition",,"37 °C, delipidated protein 2.5 µM, together with: [3H]oleic acid",Ki,0.19 µM
C=CCSCC(=O)O,"putA (Sinorhizobium meliloti, UniProt F7X6I3)",,,,Ki,8000 ± 1000 µM
O[C@@H](CCCN1CCC(O)(c2ccc(Cl)cc2)CC1)c1ccc(F)cc1,"DRD3 (Homo sapiens, UniProt P35462)",,,,Ki,6.28 ± 0.507 µM
CN[C@H](CC(C)C)C(=O)N[C@H]1C(=O)N[C@@H](CC(N)=O)C(=O)N[C@H]2C(=O)N[C@H]3C(=O)N[C@H](C(=O)N[C@H](C(=O)O)c4cc(O)cc(O)c4-c4cc3ccc4O)[C@H](O)c3ccc(c(Cl)c3)Oc3cc2cc(c3O[C@@H]2O[C@H](CO)[C@@H](O)[C@H](O)[C@H]2O[C@H]2C[C@](C)(N)[C@H](O)[C@H](C)O2)Oc2ccc(cc2Cl)[C@H]1O,"SLC10A1 (Homo sapiens, UniProt Q14973)","taurocholate uptake, inhibitor",NTCP-expressing HEK293,together with: 10 µM taurocholate,Ki,488 ± 398 µM
CN(C)CCOC(C)(c1ccccc1)c1ccccn1 (stereo not drawn),Plasmodium falciparum,,GB4,,IC50,5.01 µM
O=C[C@H](O)COP(=O)(O)O,"dxs (Pseudomonas aeruginosa, UniProt Q9KGU7)",,,,Ki,7300 ± 2800 µM
O=C(O)CCC(=O)C(=O)O,"HIF1AN (Homo sapiens, UniProt Q9NWT6)",substrate,,"pH 7.00, 37.0 °C, together with: CTAD 100 µM",Ki,> 1300 µM
CC(=O)P(=O)(O)OCCc1cn([C@H](Cc2ccccc2)C(=O)O)nn1,"dxs (Pseudomonas aeruginosa, UniProt Q9KGU7, R482A)",inhibitor,,,Ki,15 ± 3 µM
CC(C)CN(C[C@@H](O)[C@H](Cc1ccccc1)NC(=O)O[C@H]1C[C@@H]2C[C@H]3[C@H](OC[C@H]31)O2)S(=O)(=O)c1ccc2nc(NC3CC3)sc2c1,"Gag-Pol polyprotein, protease (gag-pol, Human immunodeficiency virus type 1 group M subtype B, UniProt P04585)","enzyme activity, inhibitor",,,Ki,0.00032 µM
CCC(=O)N1CCN(C(=O)c2ccccc2)CC1,Plasmodium falciparum,,3D7,,IC50,3.98 µM
Cc1ccc2c(c1)C(=O)C1(O)CCN(c3ccccc3)C1=N2 (stereo not drawn),"MYH11, S1 fragment (Gallus gallus, UniProt P10587)","ATPase activity, inhibitor",,,Ki,3.2 µM
C#C[C@@H](C)NCC(=O)O,"putA, PRODH domain (Sinorhizobium meliloti, UniProt F7X6I3, del84-189)",inhibitor,,,Ki,8700 ± 500 µM

# Repeated from above:
SMILES,tested on,test,test system,conditions,measurement,result
CC(=O)P(=O)(O)OCCc1cn([C@H](Cc2ccccc2)C(=O)O)nn1,"dxs (Pseudomonas aeruginosa, UniProt Q9KGU7, R482A)",inhibitor,,,Ki,15 ± 3 µM
